Assay results pooled from the literature.
Each line is one published result; not all experiments were run side by side. Numbers after ± are the reported error.

| SMILES | target or system | assay | test system | conditions | how to read | endpoint | value |
| --- | --- | --- | --- | --- | --- | --- | --- |
| COc1ccc2occ(/C=C/C(=O)N3CCN(C(=S)SCCN(C)C)CC3)c(=O)c2c1 | tomato spotted wilt virus | viral infection, half-leaf method | Nicotiana glutinosa | 500 µg/mL | – | inactivation effect | 63.7 ± 3.9% |
| Cn1c(=O)oc2ccc(-c3ccc(CC(C#N)NC(=O)C4CNCCCO4)c(F)c3)cc21 (stereo not drawn) | neutrophil elastase (human) | inhibitor | human, whole blood | 10 mg once daily, 31 days after discontinuation, normalised to neutrophil count | – | reduction in NE activity | 43.2% |
| CC[C@H](C)[C@H](NC(=O)[C@H](Cc1ccccc1)NC(=O)[C@@H](NC(=O)[C@@H](NC(=O)[C@H](CC(C)C)NC(=O)[C@H](CCCCN)NC(=O)[C@@H](N)CCCCN)[C@@H](C)CC)[C@@H](C)O)C(=O)N[C@@H](CC(C)C)C(=O)N[C@@H](CCCCN)C(=O)N[C@@H](CCCCN)C(=O)N[C@H](C(=O)N[C@@H](CCCNC(=N)N)C(=O)N[C@@H](CCC(=O)O)C(=O)N[C@@H](CCCCN)C(=O)N[C@@H](CCCCN)C(=O)N[C@@H](CCCCN)C(=O)N[C@@H](CCC(=O)O)C(=O)N[C@@H](CS)C(=O)N[C@@H](CC(C)C)C(=O)N[C@H](C(=O)O)C(C)C)[C@@H](C)O | voltage-gated sodium channel | resurgent sodium current, kinetic model fit | mouse CA3 neurons | 200 µM, membrane potential -10 mV | – | rate constant kOI | 70 s⁻¹ |
| Cc1cc([C@H](C(=O)N2C[C@H](O)C[C@H]2C(=O)N[C@@H](CC(=O)N2CCC(N3CCC(C#Cc4ccc(C(=O)N[C@H]5C(C)(C)[C@H](Oc6ccc(C#N)c(Cl)c6)C5(C)C)cc4)CC3)CC2)c2ccc(-c3scnc3C)cc2)C(C)C)on1 | MDA-MB-453 | suppression of increase, refers to: WNT7B | – | 24 h | – | effective concentration | 10 nM |
| COc1ccc(C2CC(c3ccc(C)cc3)=Nc3ccccc3S2)cc1 (stereo not drawn) | – | – | Wistar rat, STZ-induced diabetes | oral, 20 mg/kg once daily, day 14 | – | body weight | 188 ± 4.21 g |
| Oc1cc(C(F)(F)F)ccc1-c1nc2c(C(F)(F)F)cc(C(F)(F)F)cc2[nH]1 | Klebsiella pneumoniae | colistin potentiator | KP H2, colistin-resistant | 5 µM | – | colistin MIC | 2 µg/mL |
| COc1ccc(C2CC(c3ccc(C)cc3)=Nc3ccccc3S2)cc1OC (stereo not drawn) | – | – | Wistar rat, STZ-induced diabetes, serum | 10 mg/kg, 28 days | – | AST (SGOT) | 23.9 ± 2.11 IU/L |
| O=C(CCCN1C(=O)c2cccc3cccc(c23)C1=O)NO | Cryptosporidium parvum | parasite growth | HCT-8 | 5 µM, 48 h | – | inhibition | 67.6 ± 10.4% |
| CCSC(=S)N1CCN(C(=O)/C=C/c2coc3ccccc3c2=O)CC1 | tomato spotted wilt virus | viral infection, half-leaf method | Nicotiana glutinosa | 500 µg/mL | – | inactivation effect | 54.1 ± 4.3% |
| O=Cc1c(O)ccc2ccccc12 | HUVEC | RNA sequencing, refers to: TSLP | – | 75 µM, 24 h | baseline: DMSO | log2 fold change | 3.82 |
| CN(C)CCCSC(=S)N1CCN(C(=O)/C=C/c2coc3cc(F)ccc3c2=O)CC1 | tomato spotted wilt virus | viral infection, half-leaf method | Nicotiana glutinosa | 500 µg/mL | – | inactivation effect | 67.3 ± 7.4% |
| Cc1sc2ncn(CC(=O)N3CCCC3)c(=O)c2c1-c1cccc(Br)c1 | NMDA receptor mouse | single-channel outside-out recording | cultured cortical neurons | 50 µM | baseline: vehicle | open probability increase | 4.4 fold |
| CCN(CC)CCCSC(=S)N1CCN(C(=O)/C=C/c2coc3ccc(OC)cc3c2=O)CC1 | tomato spotted wilt virus | viral infection, half-leaf method | Nicotiana glutinosa | 500 µg/mL | – | curative effect | 59.6 ± 3.8% |
| Oc1ccc(C(F)(F)F)cc1-c1nc2c(Cl)cc(Cl)cc2[nH]1 | Klebsiella pneumoniae | colistin potentiator | KP C3, colistin-resistant | 5 µM | – | colistin MIC | 0.25 µg/mL |
| CN(C)CCSC(=S)N1CCN(C(=O)/C=C/c2coc3cc(F)ccc3c2=O)CC1 | tomato spotted wilt virus | viral infection, half-leaf method | Nicotiana glutinosa | 500 µg/mL | – | protective effect | 62.7 ± 3.5% |
| O=C1CC(c2ccc(O)cc2)Oc2cc(O)cc([O][Ga+][O]c3cc(O)cc4c3C(=O)CC(c3ccc(O)cc3)O4)c21 (stereo not drawn) | Pseudomonas aeruginosa | – | PAO1, mouse wound infection model | topical, 2 mg/kg twice daily, 48 h post-infection | baseline: control group | bacterial load reduction | ~3 log CFU |
| CN(C)CCCSC(=S)N1CCN(C(=O)/C=C/c2coc3ccc(F)cc3c2=O)CC1 | tomato spotted wilt virus | viral infection, half-leaf method | Nicotiana glutinosa | 500 µg/mL | – | curative effect | 60.7 ± 3.5% |
| CC[C@H](C)[C@H](NC(=O)[C@H](Cc1ccccc1)NC(=O)[C@@H](NC(=O)[C@@H](NC(=O)[C@H](CC(C)C)NC(=O)[C@H](CCCCN)NC(=O)[C@@H](N)CCCCN)[C@@H](C)CC)[C@@H](C)O)C(=O)N[C@@H](CC(C)C)C(=O)N[C@@H](CCCNC(=N)N)C(=O)N[C@@H](CCCNC(=N)N)C(=O)N[C@H](C(=O)N[C@@H](CCCNC(=N)N)C(=O)N[C@@H](CCC(=O)O)C(=O)N[C@@H](CCCCN)C(=O)N[C@@H](CCCCN)C(=O)N[C@@H](CCCCN)C(=O)N[C@@H](CCC(=O)O)C(=O)N[C@@H](CS)C(=O)N[C@@H](CC(C)C)C(=O)N[C@H](C(=O)O)C(C)C)[C@@H](C)O | voltage-gated sodium channel | resurgent sodium current, kinetic model fit | mouse CA3 neurons | 200 µM, membrane potential -30 mV | – | rate constant kIO | 3 s⁻¹ |

A few entries again:
| SMILES | target or system | assay | test system | conditions | how to read | endpoint | value |
| --- | --- | --- | --- | --- | --- | --- | --- |
| COc1ccc(C2CC(c3ccc(C)cc3)=Nc3ccccc3S2)cc1 (stereo not drawn) | – | – | Wistar rat, STZ-induced diabetes | oral, 20 mg/kg once daily, day 14 | – | body weight | 188 ± 4.21 g |
| Cc1sc2ncn(CC(=O)N3CCCC3)c(=O)c2c1-c1cccc(Br)c1 | NMDA receptor mouse | single-channel outside-out recording | cultured cortical neurons | 50 µM | baseline: vehicle | open probability increase | 4.4 fold |
